Measurements gathered from unrelated publications.
Protocols differ between the studies behind these lines. ± marks the error that the study gave.
Technique: steady-state kinetics
B1: BaiA1 (Clostridium scindens, UniProt P07914); chain MKLVQDKITIITGGTRGIGFAAAKLFIENGAKVSIFGETQEEVDTALAQLKELYPEEEVLGFAPDLTSRDAVMAAVGTVAQKYGRLDVMINNAGITMNSVFSRVSEEDFKNIMDINVNGVFNGAWSAYQCMKDAKQGVIINTASVTGIYGSLSGIGYPTSKAGVIGLTHGLGREIIRKNIRVVGVAPGVVDTDMTKGLPPEILEDYLKTLPMKRMLKPEEIANVYLFLASDLASGITATTISVDGAYRP
B2: ASRGL1 (Homo sapiens, UniProt Q7L266); chain 1 MNPIVVVHGGGAGPISKDRKERVHQGMVRAATVGYGILREGGSAVDAVEGAVVALEDDPEFNAGCGSVLNTNGEVEMDASIMDGKDLSAGAVSAVQCIANPIKLARLVMEKTPHCFLTDQGAAQFAAAMGVPEIPGEKLVTERNKKRLEKEKHEKGAQKTDCQKNLG; chain 2 TVGAVALDCKGNVAYATSTGGIVNKMVGRVGDSPCLGAGGYADNDIGAVSTTGHGESILKVNLARLTLFHIEQGKTVEEAADLSLGYMKSRVKGLGGLIVVSKTGDWVAKWTSTSMPWAAAKDGKLHFGIDPDDTTITDLP
B3: pdh1 (Macropsalliota meleagris, UniProt Q3L245); chain AITYQHPDDLPSGVDYDFIVAGGGTAGLVVASRLSENSNWKVLVIEAGPSNKDAFVTRVPGLASTLGAGSPIDWNYTTIPQDGLDGRSLDYPRAKILGGCSTHNGMVYTRGSKDDWNSWAGIIGDQGLGWDSILPAIKKAEKFTQDFTDQSVKGHIDPSVHGFDGKLSVSAAYSNISFNDLLFETTKELNAEFPFKLDMNDGKPIGLGWTQYTIDNHAERSSSATSYLESTGDNVHVLVNTLVTRVLSASGNGTDFRKVEFAVDANSPKKQLEAKKEVIVAGGVIASPQILMNSGIGERKVLQAVGIDTLIDNPSVGKNLSDQGATSVMFDTTLPSTDFDVDAALTEWTNSHTGPLARGARLNHLTFVRLPDDKLNGQDPSSGKNSPHIEFQFAQITPQVPTLGVPKQAPLPAANSYRLLLQLAVVNLYSISRGSISLSDNNPFTYPLIDLNMFKEDIDIAILREGIRSAGRMFSSKAFKNSVNKFVYPPADATSDEDLDAFLRSSTFSYVHGVGTLSMSPKGASWGVVNPDFKVKGTSGLRVVDASVIPHAPAAHTQLPVYAFAEYASALIAKSYN
B4: Pck1 A467G (Rattus norvegicus, UniProt P07379); chain MPPQLHNGLDFSAKVIQGSLDSLPQEVRKFVEGNAQLCQPEYIHICDGSEEEYGRLLAHMQEEGVIRKLKKYDNCWLALTDPRDVARIESKTVIITQEQRDTVPIPKSGQSQLGRWMSEEDFEKAFNARFPGCMKGRTMYVIPFSMGPLGSPLAKIGIELTDSPYVVASMRIMTRMGTSVLEALGDGEFIKCLHSVGCPLPLKKPLVNNWACNPELTLIAHLPDRREIISFGSGYGGNSLLGKKCFALRIASRLAKEEGWLAEHMLILGITNPEGKKKYLAAAFPSACGKTNLAMMNPTLPGWKVECVGDDIAWMKFDAQGNLRAINPENGFFGVAPGTSVKTNPNAIKTIQKNTIFTNVAETSDGGVYWEGIDEPLAPGVTITSWKNKEWRPQDEEPCAHPNSRFCTPASQCPIIDPAWESPEGVPIEGIIFGGRRPAGVPLVYEALSWQHGVFVGAAMRSEATAGAEHKGKVIMHDPFAMRPFFGYNFGKYLAHWLSMAHRPAAKLPKIFHVNWFRKDKNGKFLWPGFGENSRVLEWMFGRIEGEDSAKLTPIGYVPKEDALNLKGLGDVNVEELFGISKEFWEKEVEEIDKYLEDQVNADLPYEIERELRALKQRISQM
B5: enzyme (Mortierella alpina, UniProt U5Y6A8); chain MAPPHVVDEQVRRRIVVEDEIQSKKQFERNYVPMDFTIKEIRDAIPAHLFIRDTTKSILHVVKDLVTIAIVFYCATFIETLPSLALRVPAWITYWIIQGTVMVGPWILAHECGHGAFSDSKTINTIFGWVLHSALLVPYQAWAMSHSKHHKGTGSMSKDVVFIPATRSYKGLPPLEKPAAEEEVLEQEHHHHEESIFAETPIYTLGALFFVLTLGWPLYLIMNFSGHEAPHWVNHFQTVAPLYEPHQRKNIFYSNCGIVAMGSILTYLSMVFSPLTVFMYYGIPYLGVNAWIVCITYLQHTDPKVPHFRDNEWNFQRGAACTIDRSFGTIVNHLHHHIGDSHQCHHMFSQMPFYNAVEATKHLKAKLGKYYIFDDTPIAKALYRNWRECKFVEDEGDVVFYKH
B6: HARS1 Y454S (Homo sapiens, UniProt P12081); chain MAERAALEELVKLQGERVRGLKQQKASAELIEEEVAKLLKLKAQLGPDESKQKFVLKTPKGTRDYSPRQMAVREKVFDVIIRCFKRHGAEVIDTPVFELKETLMGKYGEDSKLIYDLKDQGGELLSLRYDLTVPFARYLAMNKLTNIKRYHIAKVYRRDNPAMTRGRYREFYQCDFDIAGNFDPMIPDAECLKIMCEILSSLQIGDFLVKVNDRRILDGMFAICGVSDSKFRTICSSVDKLDKVSWEEVKNEMVGEKGLAPEVADRIGDYVQQHGGVSLVEQLLQDPKLSQNKQALEGLGDLKLLFEYLTLFGIDDKISFDLSLARGLDYYTGVIYEAVLLQTPAQAGEEPLGVGSVAAGGRYDGLVGMFDPKGRKVPCVGLSIGVERIFSIVEQRLEALEEKIRTTETQVLVASAQKKLLEERLKLVSELWDAGIKAELLYKKNPKLLNQLQSCEEAGIPLVAIIGEQELKDGVIKLRSVTSREEVDVRREDLVEEIKRRTGQPLCIC
B7: protein G96D (Streptomyces coelicolor, UniProt P16544); chain MATQDSEVALVTGATSGIGLEIARRLGKEGLRVFVCARGEEGLRTTLKELREAGVEADGRTCDVRSVPEIEALVAAVVERYGPVDVLVNNAGRPGDGATAELADELWLDVVETNLTGVFRVTKQVLKAGGMLERGTGRIVNIASTGGKQGVVHAAPYSASKHGVVGFTKALGLELARTGITVNAVCPGFVETPMAASVREHYSDIWEVSTEEAFDRITARVPIGRYVQPSEVAEMVAYLIGPGAAAVTAQALNVCGGLGNY
B8: enzyme A178R/D177A/M179H/P184R (Levilactobacillus brevis, UniProt Q03Q85); chain MKVTVVGCTHAGTFAIKQILAEHPDAEVTVYERNDVISFLSCGIALYLGGKVADPQGLFYSSPEELQKLGANVQMNHNVLAIDPDQKTVTVEDLTNHAQTTESYDKLVMTSGSWPIVPKIPGIDSDRVKLCKNWAHAQALIEDAKEAKRITVIGAGYIGAELAEAYSTTGHDVTLIARHARVMRKYFDADFTDVIEQDYRDHGVQLALGETVESFTDSATGLTIKTDKNSYETDLAILCIGFRPNTDLLKGKVDMAPNGAIITDDYMRSSNPDIFAAGDSAAVHYNPTHQNAYIPLATNAVRQGILVGKNLVKPTVKYMGTQSSSGLALYDRTIVSTGLTLAAAKQQGLNAEQVIVEDNYRPEFMPSTEPVLMSLVFDPDTHRILGGALMSKYDVSQSANTLSVCIQNENTIDDLAMVDMLFQPNFDRPFNYLNILAQAAQAKVAQSVNA
B9: Nudt8 (Mus musculus, UniProt Q9CR24); chain MLPDGLSAEDEQRCRQLLARTTARLRSRPAAAAVLVPLCLVRGVPALLYTLRSSRLVGRHKGEVSFPGGKCDPDDQDVIHTALRETQEELGLEVPKEHVWGVLQPVYDREKATIVPVLANVGPLDLQSLRPNLEEVDEVFEMSLAHLLQTQNQGYTHFCQGGHFSYTLPVFLHGPHRVWGLTAVITELTLKLLAPGFYQPSLAVPELPRG
B10: pyc H216N (Rhizobium etli, UniProt Q2K340); chain MPISKILVANRSEIAIRVFRAANELGIKTVAIWAEEDKLALHRFKADESYQVGRGPHLARDLGPIESYLSIDEVIRVAKLSGADAIHPGYGLLSESPEFVDACNKAGIIFIGPKADTMRQLGNKVAARNLAISVGVPVVPATEPLPDDMAEVAKMAAAIGYPVMLKASWGGGGRGMRVIRSEADLAKEVTEAKREAMAAFGKDEVYLEKLVERARNVESQILGDTHGNVVHLFERDCSVQRRNQKVVERAPAPYLSEAQRQELAAYSLKIAGATNYIGAGTVEYLMDADTGKFYFIEVNPRIQVEHTVTEVVTGIDIVKAQIHILDGAAIGTPQSGVPNQEDIRLNGHALQCRVTTEDPEHNFIPDYGRITAYRSASGFGIRLDGGTSYSGAIITRYYDPLLVKVTAWAPNPLEAISRMDRALREFRIRGVATNLTFLEAIIGHPKFRDNSYTTRFIDTTPELFQQVKRQDRATKLLTYLADVTVNGHPEAKDRPKPLENAARPVVPYANGNGVKDGTKQLLDTLGPKKFGEWMRNEKRVLLTDTTMRDGHQSLLATRMRTYDIARIAGTYSHALPNLLSLECWGGATFDVSMRFLTEDPWERLALIREGAPNLLLQMLLRGANGVGYTNYPDNVVKYFVRQAAKGGIDLFRVFDCLNWVENMRVSMDAIAEENKLCEAAICYTGDILNSARPKYDLKYYTNLAVELEKAGAHIIAVKDMAGLLKPAAAKVLFKALREATGLPIHFHTHDTSGIAAATVLAAVEAGVDAVDAAMDALSGNTSQPCLGSIVEALSGSERDPGLDPAWIRRISFYWEAVRNQYAAFESDLKGPASEVYLHEMPGGQFTNLKEQARSLGLETRWHQVAQAYADANQMFGDIVKVTPSSKVVGDMALMMVSQDLTVADVVSPDREVSFPESVVSMLKGDLGQPPSGWPEALQKKALKGEKPYTVRPGSLLKEADLDAERKVIEKKLEREVSDFEFASYLMYPKVFTDFALASDTYGPVSVLPTPAYFYGLADGEELFADIEKGKTLVIVNQAVSATDSQGMVTVFFELNGQPRRIKVPDRAHGATGAAVRRKAEPGNAAHVGAPMPGVISRVFVSSGQAVNAGDVLVSIEAMKMETAIHAEKDGTIAEVLVKAGDQIDAKDLLAVYGG
B11: Mgst1 unactivated (Rattus norvegicus, UniProt P08011); chain ADLKQLMDNEVLMAFTSYATIILAKMMFLSSATAFQRLTNKVFANPEDCAGFGKGENAKKFLRTDEKVERVRRAHLNDLENIVPFLGIGLLYSLSGPDLSTALIHFRIFVGARIYHTIAYLTPLPQPNRGLAFFVGYGVTLSMAYRLLRSRLYL

B1 (BaiA1)  kcat/Km (C[C@H](CCC(=O)SCCNC(=O)CCNC(=O)[C@H](O)C(C)(C)COP(=O)(O)OP(=O)(O)OC[C@H]1O[C@@H](n2cnc3c(N)ncnc32)[C@H](O)[C@@H]1OP(=O)(O)O)[C@H]1CC[C@H]2[C@@H]3CC[C@@H]4CC(=O)CC[C@]4(C)[C@H]3C[C@H](O)[C@]12C; pH 8.7, 37 °C, added: NADH): 131000 M⁻¹ s⁻¹
B2 (ASRGL1)  kcat/Km (C[C@H](NC(=O)C[C@H](N)C(=O)O)C(=O)O; pH 7.4, 37 °C, NaCl 100 mM): 6000 ± 800 M⁻¹ s⁻¹
B3 (pdh1)  kcat/Km (CN(C)c1ccc2nc3ccc(N(C)C)c([N+](=O)[O-])c3[s+]c2c1; pH 7.5, 22 °C, apparent): 2500 M⁻¹ s⁻¹
B4 (Pck1 A467G)  kcat/Km (Nc1nc2c(ncn2[C@@H]2O[C@H](COP(=O)(O)OP(=O)(O)OP(=O)(O)O)[C@@H](O)[C@H]2O)c(=O)[nH]1; pH 7.5, 25 °C): 270000 M⁻¹ s⁻¹
B5 (enzyme)  kcat/Km (CCCCC/C=C\C/C=C\C/C=C\CCCCC(=O)SCCNC(=O)CCNC(=O)[C@H](O)C(C)(C)COP(=O)(O)OP(=O)(O)OC[C@H]1O[C@@H](n2cnc3c(N)ncnc32)[C@H](O)[C@@H]1OP(=O)(O)O; pH 7.5, 28 °C): 4170 M⁻¹ s⁻¹
B6 (HARS1 Y454S)  kcat/Km (N[C@@H](Cc1c[nH]cn1)C(=O)O; pH 7.5, 37 °C, KCl 150 mM, added: tRNA(His)): 1.2e+06 ± 400000 M⁻¹ s⁻¹
B7 (protein G96D)  kcat/Km (O[C@H]1CCCc2ccccc21; pH 7.4, phosphate 400 mM, NADPH 250 µM printed, added: NADP+, reverse reaction): 1 ± 0.2 M⁻¹ s⁻¹
B8 (enzyme A178R/D177A/M179H/P184R)  kcat/Km (NC(=O)C1=CN([C@@H]2O[C@H](COP(=O)(O)OP(=O)(O)OC[C@H]3O[C@@H](n4cnc5c(N)ncnc54)[C@H](O)[C@@H]3O)[C@@H](O)[C@H]2O)C=CC1; pH 7.5, 37 °C, per site): 110000 ± 20000 M⁻¹ s⁻¹
B9 (Nudt8)  kcat/Km (CC(C)(COP(=O)(O)OP(=O)(O)OC[C@H]1O[C@@H](n2cnc3c(N)ncnc32)[C@H](O)[C@@H]1OP(=O)(O)O)[C@@H](O)C(=O)NCCC(=O)NCCSC(=O)CC(=O)O; pH 8.5, added: 2 mM Mn2+): 13200 M⁻¹ s⁻¹
B10 (pyc H216N)  kcat/Km (Nc1ncnc2c1ncn2[C@@H]1O[C@H](COP(=O)(O)OP(=O)(O)OP(=O)(O)O)[C@@H](O)[C@H]1O; pH 7.8, 30 °C, no pyruvate, added: NaHCO3 20 mM, acetyl CoA 0.25 mM, Mg2+ 5 mM): 140 M⁻¹ s⁻¹
B11 (Mgst1 unactivated)  kcat/Km (NC(=O)c1ccc(Cl)c([N+](=O)[O-])c1; pH 6.5, 5 °C, potassium phosphate 0.1 M, unactivated enzyme, added: GSH 5 mM): 290 ± 70 M⁻¹ s⁻¹

Excerpt of the above:
B8 (enzyme A178R/D177A/M179H/P184R)  kcat/Km (NC(=O)C1=CN([C@@H]2O[C@H](COP(=O)(O)OP(=O)(O)OC[C@H]3O[C@@H](n4cnc5c(N)ncnc54)[C@H](O)[C@@H]3O)[C@@H](O)[C@H]2O)C=CC1; pH 7.5, 37 °C, per site): 110000 ± 20000 M⁻¹ s⁻¹
B7 (protein G96D)  kcat/Km (O[C@H]1CCCc2ccccc21; pH 7.4, phosphate 400 mM, NADPH 250 µM printed, added: NADP+, reverse reaction): 1 ± 0.2 M⁻¹ s⁻¹
